Measured values of several laboratories.
Numbered parts are unrelated; each lists some results of a single study. Changes are numbered by the printed parent chain.

Series 1 — technique: RNA Bind-n-Seq; molecule type: RNA; sample: in vitro; concentration: 365 nM; baseline: no-protein control; direction: higher = stronger binding
Target: RNA binding protein fox-1 homolog 2, RRM domain, GST-SBP tag (RBFOX2, Homo sapiens, UniProt O43251-10, residues 100-194)
Notes: natural RNA segment, single round, ends assumed
Shared flanks, not repeated: GGGAGUUCUACAGUCCGACGAUC … UGGAAUUCUCGGGUGCCAA
Strand | RBNS enrichment (R)
AAUAGGUUAUAUGCAAGCACUAUGCCCUUUUAUAUAAGUGACUUGAACAUCUGUGCCCGAUUUUAGUAUGUGCAGGGGGGCGAUCUGGGAAUCAGUCCCCUGUGGAUACC | 0.483
GUUGUGGCCCUCACUACCAAGCCACGGGCAGCCCAUUUCCAGUAGGAUGGCGGUUUGGAUUUCUUUGCUCAGAGCCAAUGCAGUUGACACAGUGGCUGCUGGGUUACUGU | 0.442
GUGGGCUUCCUCUCUGCCCCAGAUCUCUCCUUCCUCUCUCUUCCUUCCACUCCCGCCCCUUCUCUUGCAGCCAAGUCAGACUCCAAGAGGCCCCACUGAGCUGCCCUCUC | 0.778
AGCUUAUGAUAUCCAACAUUAUUAUAGUUGAUGAGUUAGUAAAUUCCAAAAAAAAAAGAUGAUUUUAUAUGUAUGACAUAAAAAAAAUCUUUGUAAAGUGCGCAAGUGCA | 1.21
UUUCCUUGGAGCACUGAGCACCAUUUGGAAGCUUGAGAGAAACCAAAAUUAAAGAGAGAAAGAGAGAGCGUGCACGCUCCUGCUUUGUCUUUCCUGUGUGGGCUGUUUGC | 9.24
AAGCAUUUAGCAAGGUGCCUGGCACAUAGUAAGCACUCAAUAAAUGGUAGUUUUUUUGUUCUUUUAAACUGAGCUCAGCGAGUUUGGCCCACACUGGUGGGCUGCUGGGU | 0.849
CUGCCGCUCCUCUGGUCACAGUCCACGCAGGCCAGCCCUGGUUUCUGGAAAGAGGCCUCCCUCCCUCCCUUUGUGGAGCCGUCAGUCAUCCCCAAGAUGAGAGGCGAGCA | 0.674

Series 2 — technique: protein binding microarray; molecule type: double-stranded DNA, one strand shown; sample: in vitro; concentration: not given; baseline: not given; direction: higher = stronger binding
Target: Histone acetyltransferase KAT6A, winged helix 1, GST fusion (KAT6A, Homo sapiens, UniProt Q92794, residues 1-85)
Notes: 8-mer, flanks averaged, mean of 2 arrays, mostly near background
Residues (chain): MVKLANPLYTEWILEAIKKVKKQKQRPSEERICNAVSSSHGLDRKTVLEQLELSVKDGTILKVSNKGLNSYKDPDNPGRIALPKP
Strand | E-score
ACCTGTCT | -0.154
AAGTCTAC | -0.115
GCCTGACA | -0.0587
ATCAGTAA | -0.0928
TATATACA | -0.264

Series 3 — technique: DHFR PCA, deep sequencing; sample: yeast; added: (+)-ABA 1.4 µM; baseline: wild-type fitted maximum; direction: higher = stronger binding
Target: ABI1, truncated, D143A, DHFR fusion (Arabidopsis thaliana)
Notes: methotrexate growth selection, single substitutions
Starting sequence: PYL1, truncated, DHFR fusion (Arabidopsis thaliana); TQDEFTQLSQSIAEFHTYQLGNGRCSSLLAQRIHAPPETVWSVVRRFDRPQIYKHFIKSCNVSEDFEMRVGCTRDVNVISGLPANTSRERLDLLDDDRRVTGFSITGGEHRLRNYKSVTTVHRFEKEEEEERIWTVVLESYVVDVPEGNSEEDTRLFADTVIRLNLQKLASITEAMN; partner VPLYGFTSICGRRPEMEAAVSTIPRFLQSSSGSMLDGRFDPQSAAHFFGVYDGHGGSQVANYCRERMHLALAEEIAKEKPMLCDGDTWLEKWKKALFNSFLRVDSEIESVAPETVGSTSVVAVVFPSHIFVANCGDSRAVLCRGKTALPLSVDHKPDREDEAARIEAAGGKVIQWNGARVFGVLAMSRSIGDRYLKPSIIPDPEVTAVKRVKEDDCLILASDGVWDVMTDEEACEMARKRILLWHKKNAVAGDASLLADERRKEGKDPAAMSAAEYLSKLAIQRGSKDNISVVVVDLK
Substitution | relative binding score [%]
T39E | 42.3
N149E | 21.5
T120M | 3.93
S63K | 60.8
N114I | 4.74

Mixed results
Substance | target | test | system | setting | how to read | quantity | value
PhoQ, residues 284 288 289 292 302 303 SIHLQL | PhoP, residues 12 14 15 18 19 TPWLV (Escherichia coli, UniProt P23836) | Sort-seq, item: YFP reporter | E. coli | PhoQ-PhoP variant library, added: 10 µM Mg2+ | baseline: high Mg2+ state, higher = stronger signaling | fold induction | 13.6

Repeated from above (series 1):
Strand | RBNS enrichment (R)
GUUGUGGCCCUCACUACCAAGCCACGGGCAGCCCAUUUCCAGUAGGAUGGCGGUUUGGAUUUCUUUGCUCAGAGCCAAUGCAGUUGACACAGUGGCUGCUGGGUUACUGU | 0.442
GUGGGCUUCCUCUCUGCCCCAGAUCUCUCCUUCCUCUCUCUUCCUUCCACUCCCGCCCCUUCUCUUGCAGCCAAGUCAGACUCCAAGAGGCCCCACUGAGCUGCCCUCUC | 0.778
AGCUUAUGAUAUCCAACAUUAUUAUAGUUGAUGAGUUAGUAAAUUCCAAAAAAAAAAGAUGAUUUUAUAUGUAUGACAUAAAAAAAAUCUUUGUAAAGUGCGCAAGUGCA | 1.21
